Measurements collected from several papers.
MTNR1B: Melatonin receptor type 1B (MTNR1B, Homo sapiens, UniProt P49286)
Chain of UniProt P49286 (whole entry, looked up): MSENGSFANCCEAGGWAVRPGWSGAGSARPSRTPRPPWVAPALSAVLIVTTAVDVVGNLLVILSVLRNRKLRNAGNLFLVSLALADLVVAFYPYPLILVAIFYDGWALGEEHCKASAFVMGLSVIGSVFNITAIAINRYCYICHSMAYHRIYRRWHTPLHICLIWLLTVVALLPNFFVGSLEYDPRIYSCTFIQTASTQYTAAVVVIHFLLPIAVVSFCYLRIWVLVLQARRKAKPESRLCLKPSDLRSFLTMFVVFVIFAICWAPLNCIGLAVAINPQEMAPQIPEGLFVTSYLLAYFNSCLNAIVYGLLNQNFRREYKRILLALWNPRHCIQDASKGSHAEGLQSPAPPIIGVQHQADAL
Chain of UniProt P35590 (whole entry, looked up): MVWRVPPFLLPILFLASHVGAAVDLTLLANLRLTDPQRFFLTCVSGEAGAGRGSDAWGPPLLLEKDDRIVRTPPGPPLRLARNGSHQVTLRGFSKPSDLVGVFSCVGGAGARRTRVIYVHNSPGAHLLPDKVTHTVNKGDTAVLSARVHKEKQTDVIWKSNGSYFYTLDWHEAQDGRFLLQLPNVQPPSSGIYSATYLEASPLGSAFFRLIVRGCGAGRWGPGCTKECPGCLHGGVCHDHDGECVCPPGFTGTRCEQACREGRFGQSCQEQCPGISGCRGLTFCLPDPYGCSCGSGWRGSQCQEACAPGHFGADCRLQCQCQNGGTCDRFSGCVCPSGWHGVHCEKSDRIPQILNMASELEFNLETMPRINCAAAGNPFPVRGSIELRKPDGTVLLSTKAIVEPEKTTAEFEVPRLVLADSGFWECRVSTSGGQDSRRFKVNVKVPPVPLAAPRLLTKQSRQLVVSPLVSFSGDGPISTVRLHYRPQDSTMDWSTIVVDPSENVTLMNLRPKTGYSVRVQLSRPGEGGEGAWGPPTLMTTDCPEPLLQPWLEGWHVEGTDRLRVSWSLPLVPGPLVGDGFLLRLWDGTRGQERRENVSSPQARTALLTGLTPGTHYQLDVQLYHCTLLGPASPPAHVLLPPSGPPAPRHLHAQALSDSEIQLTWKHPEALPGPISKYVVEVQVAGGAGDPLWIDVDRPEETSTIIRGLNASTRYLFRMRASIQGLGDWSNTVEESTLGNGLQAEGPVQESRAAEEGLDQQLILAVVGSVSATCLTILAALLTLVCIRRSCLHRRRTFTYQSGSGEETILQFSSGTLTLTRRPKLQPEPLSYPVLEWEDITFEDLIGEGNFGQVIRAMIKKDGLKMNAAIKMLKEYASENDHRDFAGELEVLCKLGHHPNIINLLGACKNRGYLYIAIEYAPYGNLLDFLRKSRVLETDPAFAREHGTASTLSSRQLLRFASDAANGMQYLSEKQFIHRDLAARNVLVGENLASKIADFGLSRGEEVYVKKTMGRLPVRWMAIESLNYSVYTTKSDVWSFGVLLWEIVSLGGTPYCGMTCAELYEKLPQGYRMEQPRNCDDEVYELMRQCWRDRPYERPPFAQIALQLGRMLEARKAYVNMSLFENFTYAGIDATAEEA
Chain of UniProt Q9H4A3 (whole entry, looked up): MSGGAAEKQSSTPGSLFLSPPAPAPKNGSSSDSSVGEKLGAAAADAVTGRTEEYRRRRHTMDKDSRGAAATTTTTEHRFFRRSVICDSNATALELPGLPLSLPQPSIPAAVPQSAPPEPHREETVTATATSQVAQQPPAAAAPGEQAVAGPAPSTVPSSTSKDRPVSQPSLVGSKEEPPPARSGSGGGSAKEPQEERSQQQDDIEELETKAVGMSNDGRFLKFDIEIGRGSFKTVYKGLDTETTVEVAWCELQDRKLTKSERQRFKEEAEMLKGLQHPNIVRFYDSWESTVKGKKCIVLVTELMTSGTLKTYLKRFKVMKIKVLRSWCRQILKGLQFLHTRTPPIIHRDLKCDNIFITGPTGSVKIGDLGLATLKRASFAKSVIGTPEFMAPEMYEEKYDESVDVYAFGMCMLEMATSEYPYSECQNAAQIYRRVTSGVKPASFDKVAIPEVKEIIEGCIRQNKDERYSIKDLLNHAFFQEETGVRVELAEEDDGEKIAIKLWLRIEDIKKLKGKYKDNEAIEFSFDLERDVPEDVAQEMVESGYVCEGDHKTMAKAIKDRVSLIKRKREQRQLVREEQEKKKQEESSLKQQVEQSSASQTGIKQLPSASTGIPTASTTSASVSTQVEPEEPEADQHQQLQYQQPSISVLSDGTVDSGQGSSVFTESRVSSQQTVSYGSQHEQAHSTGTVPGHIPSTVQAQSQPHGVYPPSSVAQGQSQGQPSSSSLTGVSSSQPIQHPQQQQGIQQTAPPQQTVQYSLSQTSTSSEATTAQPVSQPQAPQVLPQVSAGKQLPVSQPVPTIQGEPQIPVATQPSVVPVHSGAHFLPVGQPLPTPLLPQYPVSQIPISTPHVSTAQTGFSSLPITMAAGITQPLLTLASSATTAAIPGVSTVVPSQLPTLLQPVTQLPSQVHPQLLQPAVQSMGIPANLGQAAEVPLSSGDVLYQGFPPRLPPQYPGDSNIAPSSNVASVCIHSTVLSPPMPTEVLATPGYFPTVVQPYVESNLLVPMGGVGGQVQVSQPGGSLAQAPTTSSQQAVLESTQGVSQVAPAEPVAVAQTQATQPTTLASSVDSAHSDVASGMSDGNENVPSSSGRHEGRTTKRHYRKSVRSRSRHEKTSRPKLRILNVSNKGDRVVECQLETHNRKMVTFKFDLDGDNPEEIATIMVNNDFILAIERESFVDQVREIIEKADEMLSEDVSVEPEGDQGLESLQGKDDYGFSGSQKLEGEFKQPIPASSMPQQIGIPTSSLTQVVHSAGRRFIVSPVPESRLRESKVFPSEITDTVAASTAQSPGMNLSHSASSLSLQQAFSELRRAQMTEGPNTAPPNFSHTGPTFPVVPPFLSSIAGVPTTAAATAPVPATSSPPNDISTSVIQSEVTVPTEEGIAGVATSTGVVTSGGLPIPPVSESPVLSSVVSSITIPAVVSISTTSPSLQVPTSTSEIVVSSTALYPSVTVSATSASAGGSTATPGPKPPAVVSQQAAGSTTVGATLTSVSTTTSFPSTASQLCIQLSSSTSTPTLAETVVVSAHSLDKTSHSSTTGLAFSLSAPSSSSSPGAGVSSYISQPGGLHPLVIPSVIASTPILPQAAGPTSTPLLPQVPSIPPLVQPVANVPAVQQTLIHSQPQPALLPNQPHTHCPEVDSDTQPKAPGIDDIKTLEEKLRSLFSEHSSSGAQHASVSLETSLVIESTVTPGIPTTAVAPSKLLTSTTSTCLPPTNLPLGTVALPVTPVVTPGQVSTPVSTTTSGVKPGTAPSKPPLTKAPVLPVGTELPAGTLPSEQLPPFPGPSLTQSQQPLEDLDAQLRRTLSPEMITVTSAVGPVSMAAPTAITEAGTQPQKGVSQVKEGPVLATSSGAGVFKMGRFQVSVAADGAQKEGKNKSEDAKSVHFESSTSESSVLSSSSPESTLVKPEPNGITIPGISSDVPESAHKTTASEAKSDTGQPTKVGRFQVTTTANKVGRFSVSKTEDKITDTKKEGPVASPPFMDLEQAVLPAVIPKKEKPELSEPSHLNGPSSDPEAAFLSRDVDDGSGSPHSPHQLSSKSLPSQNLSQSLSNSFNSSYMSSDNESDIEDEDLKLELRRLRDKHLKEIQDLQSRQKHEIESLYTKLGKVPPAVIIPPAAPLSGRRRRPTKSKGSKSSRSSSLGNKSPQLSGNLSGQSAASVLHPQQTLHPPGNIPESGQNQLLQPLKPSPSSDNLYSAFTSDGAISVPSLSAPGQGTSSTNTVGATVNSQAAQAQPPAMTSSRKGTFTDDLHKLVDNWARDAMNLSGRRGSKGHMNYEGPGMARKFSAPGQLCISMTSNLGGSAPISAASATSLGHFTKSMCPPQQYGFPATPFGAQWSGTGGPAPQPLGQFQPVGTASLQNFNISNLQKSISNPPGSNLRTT
Chain of UniProt Q00535 (whole entry, looked up): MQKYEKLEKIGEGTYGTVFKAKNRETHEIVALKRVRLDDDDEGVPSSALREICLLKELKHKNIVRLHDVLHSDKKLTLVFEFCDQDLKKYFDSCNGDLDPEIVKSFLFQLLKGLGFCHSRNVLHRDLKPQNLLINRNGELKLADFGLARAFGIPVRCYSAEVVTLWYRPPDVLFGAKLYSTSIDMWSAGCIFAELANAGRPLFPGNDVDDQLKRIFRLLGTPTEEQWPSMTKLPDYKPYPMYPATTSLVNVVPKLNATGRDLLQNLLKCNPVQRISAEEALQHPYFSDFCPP
Chain of UniProt Q9UBS0 (whole entry, looked up): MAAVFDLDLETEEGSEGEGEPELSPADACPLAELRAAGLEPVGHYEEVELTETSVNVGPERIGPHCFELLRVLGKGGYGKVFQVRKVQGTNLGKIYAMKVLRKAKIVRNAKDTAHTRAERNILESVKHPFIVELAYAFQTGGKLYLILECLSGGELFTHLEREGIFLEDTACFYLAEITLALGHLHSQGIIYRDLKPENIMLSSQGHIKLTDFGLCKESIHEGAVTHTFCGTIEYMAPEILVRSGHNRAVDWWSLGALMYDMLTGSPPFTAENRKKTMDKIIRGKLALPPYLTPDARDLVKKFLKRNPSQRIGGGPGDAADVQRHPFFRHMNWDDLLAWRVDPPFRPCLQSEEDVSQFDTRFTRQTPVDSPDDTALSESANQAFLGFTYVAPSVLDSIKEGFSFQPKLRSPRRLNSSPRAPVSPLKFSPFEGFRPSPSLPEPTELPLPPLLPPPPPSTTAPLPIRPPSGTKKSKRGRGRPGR
Chain of UniProt Q9SZU7 (whole entry, unmodified, looked up): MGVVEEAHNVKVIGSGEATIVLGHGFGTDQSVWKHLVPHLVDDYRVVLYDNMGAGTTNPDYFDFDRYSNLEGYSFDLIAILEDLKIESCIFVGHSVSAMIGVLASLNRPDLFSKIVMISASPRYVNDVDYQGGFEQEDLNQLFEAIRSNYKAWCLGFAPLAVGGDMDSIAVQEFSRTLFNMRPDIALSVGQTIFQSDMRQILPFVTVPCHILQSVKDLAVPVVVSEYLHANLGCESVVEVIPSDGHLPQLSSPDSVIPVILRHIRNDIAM

COc1ccc(C(=O)NCc2ccc(OC)c(OC)c2)cc1  inhibition (Replicase polyprotein 1ab, main protease (rep, Porcine epidemic diarrhea virus, UniProt P0C6Y4); enzyme activity, inhibitor, FRET; 10 µM): 28.7%
Cc1ccc(NC(=O)c2ccc(C)c(C(F)(F)F)c2)cc1C#Cc1nn(C2CCC(O)CC2)c2ncnc(N)c12 (stereo not drawn)  remaining signal (Mapk1 (Mus musculus, UniProt P63085); cell-free assay; 10 µM): 101%
CC1CCCN1c1nccc(-c2cnn3ncccc23)n1 (stereo not drawn)  remaining binding (CDK19 (Homo sapiens, UniProt Q9BWU1); binding; 1 µM): 100%
C1=C/COCc2cc(ccc2OCCN2CCCC2)Nc2nccc(n2)-c2cccc(c2)COC/1  remaining binding (BMPR1B (Homo sapiens, UniProt O00238); binding; 0.1 µM): 57%
NC/C(=C\F)COc1cccc(Cn2c(=S)[nH]c(=O)c3[nH]cnc32)c1  inhibition (OPRK1 (Homo sapiens, UniProt P41145); ligand displacement, radioligand; 10 µM): < 50%
CC[C@H](C)[C@H](NC(=O)[C@H](CCC(N)=O)NC(=O)[C@@H](NC(=O)[C@H](CCSC)NC(=O)[C@H](CCCCN)NC(=O)[C@H](CO)NC(=O)[C@@H](NC(=O)[C@H](CCSC)NC(=O)[C@H](CC(C)C)NC(=O)[C@H](CC(N)=O)NC(=O)[C@@H](NC(=O)[C@@H](NC(=O)[C@H](CO)NC(=O)[C@H](CC(C)C)NC(=O)[C@H](C)NC(=O)[C@H](CCCNC(=N)N)NC(=O)[C@H](CCC(=O)O)NC(=O)[C@H](Cc1ccc(O)cc1)NC(=O)[C@H](Cc1ccccc1)NC(=O)[C@H](C)NC(=O)[C@H](CC(N)=O)NC(=O)[C@@H](N)CCCCN)[C@@H](C)CC)[C@@H](C)CC)[C@@H](C)O)C(C)C)C(=O)N[C@@H](CC(N)=O)C(=O)N[C@H](C(=O)O)C(C)C  remaining activity (Cyclin-dependent kinase 5, with p35 (CDK5, Homo sapiens, UniProt Q00535); enzyme activity, inhibitor, radiometric; 1 µM, 20 min): 97%
CCCCC(=O)Nc1ccc(-c2ccc3ncn(CCC)c(=O)c3c2)cn1  remaining binding (PIK3CA (Homo sapiens, UniProt P42336, H1047Y); binding, competition with immobilised ligand; 0.5 µM): 89%
COc1ccc2ncn(CCNC(C)=O)c2c1  Emax (MTNR1B; β-arrestin recruitment, agonist; MT2; 90 min): 92%
Cc1cccc(N(O)N=Nc2ccc(S(=O)(=O)Nc3nccs3)cc2)c1  inhibition (DPPH scavenging, absorbance; 60 µg/mL): 27.6%
FC(F)(F)Oc1cccc(-c2cnc3ccc(-c4ccncc4)nn23)c1  activity vs control (DYRK3 (Homo sapiens, UniProt O43781); enzyme activity, inhibitor, radiometric; 1 µM): 48%
C=CC(=O)N1CCC(COCC(=O)N2CCN(c3nc(-c4cnc(N)nc4C(F)F)nc(N4CCOC[C@@H]4C)n3)CC2)CC1  remaining binding (AAK1 (Homo sapiens, UniProt Q2M2I8); binding, competition with immobilised ligand; 1 µM): 100%
COc1cc(I)c2[nH]cc(CCNC(C)=O)c2c1  Emax (MTNR1B; GTPγS binding, agonist, radiometric; cell membranes): 77%
Nc1ncnc2occ(-c3ccc(NC(=O)Nc4cc(C(F)(F)F)ccc4F)cc3)c12  remaining signal (TIE1 (Homo sapiens, UniProt P35590); cell-free assay; 20 µM): 0%
CCN(O)N=Nc1ccc(S(=O)(=O)Nc2cc(C)on2)cc1  inhibition (DPPH scavenging, absorbance; 180 µg/mL): 32.4%
Cc1cc([C@@H](C)Nc2ccccc2C(=O)O)c2nc(N3CCC(F)(F)CC3)c(C#N)c(=O)n2c1  remaining binding (CHUK (Homo sapiens, UniProt O15111); binding, competition with immobilised ligand; 1 µM): 91%
CC(=O)/C=C/C=C(C)/C=C/C1=C(C)CC(O)CC1(C)C (stereo in doubt)  ΔTm (KAI2 (Arabidopsis thaliana, UniProt Q9SZU7); thermal stability, DSF; 1 µM): -0.41 °C
CN1CC(Oc2cnc(C#N)cc2-c2ccn3nc(NC(=O)C4CC4)cc3c2)C1  inhibition (HIPK2 (Homo sapiens, UniProt Q9H2X6); enzyme activity, inhibitor; 1 µM): -1%
CNc1ncc2c(/C=C/C(=O)N3CCC(OC)CC3)nn(Cc3cccc(C(F)(F)F)c3)c2n1  remaining activity (RPS6KB2 (Homo sapiens, UniProt Q9UBS0); enzyme activity, inhibitor, radiometric; 1 µM): 95%
O=C(NCCc1cccc2ccccc12)C1CCC1  Emax (MTNR1A (Homo sapiens, UniProt P48039); cAMP, agonist, TR-FRET; CHO-K1; 20 min): 22%
Cc1cc2c(cc1N1C(=O)c3cccc4c(Cl)ccc(c34)C1=O)n(C)c(=O)n2C  ΔTm (Transcription initiation factor TFIID subunit 1, BD1 (TAF1, Homo sapiens, UniProt P21675); thermal stability, DSF; 10 µM): 0.3 °C
COc1cc(-c2cncc3c2CN(C)Cc2cc(N4CCNCC4)ccc2-3)cc(OC)c1OC  remaining activity (WNK1 (Homo sapiens, UniProt Q9H4A3); enzyme activity, inhibitor; 1 µM): 103%
